Results from different studies.
Each numbered part is a random draw from the data of one study; scales do not carry over between parts. Values joined by “and” are separate records of one study, mostly repeats; a detail may differ.

Sample 1
Target: Sodium-dependent neutral amino acid transporter B(0)AT1 (SLC6A19, Homo sapiens, UniProt Q695T7)
UniProt Q695T7, sequence (whole entry, looked up): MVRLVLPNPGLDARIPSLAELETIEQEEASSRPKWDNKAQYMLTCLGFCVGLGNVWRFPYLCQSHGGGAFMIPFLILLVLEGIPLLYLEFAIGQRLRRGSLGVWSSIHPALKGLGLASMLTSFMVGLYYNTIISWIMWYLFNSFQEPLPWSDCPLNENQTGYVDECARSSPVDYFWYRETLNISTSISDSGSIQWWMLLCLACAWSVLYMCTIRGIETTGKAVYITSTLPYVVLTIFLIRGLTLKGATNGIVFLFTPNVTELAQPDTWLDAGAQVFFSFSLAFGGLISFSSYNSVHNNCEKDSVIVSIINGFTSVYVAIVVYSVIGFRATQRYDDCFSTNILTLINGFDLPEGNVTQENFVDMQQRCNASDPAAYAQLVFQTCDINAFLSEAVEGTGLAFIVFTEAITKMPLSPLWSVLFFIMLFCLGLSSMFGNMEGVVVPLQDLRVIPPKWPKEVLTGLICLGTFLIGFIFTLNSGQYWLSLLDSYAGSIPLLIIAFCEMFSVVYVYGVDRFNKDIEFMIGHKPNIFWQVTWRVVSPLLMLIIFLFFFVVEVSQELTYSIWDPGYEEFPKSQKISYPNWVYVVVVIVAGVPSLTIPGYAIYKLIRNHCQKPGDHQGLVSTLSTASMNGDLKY
Method: FLIPR membrane potential
Cell line: CHO-BC
Concentration: concentration not given
Setting: unit not given
Baseline: fraction of control
SMILES | remaining activity
CNC(=O)COc1cc(C)c(Cl)c(C)c1 | 0.561
Cc1cc(NCC(=O)NC(C)C)cc(C)c1Cl | 0.102
CC(C)NC(=O)COc1ccc(I)cc1 | 0.213
COc1ccc(SCC(=O)NC(C)C)cc1 | 0.916
CC(C)NC(=O)CSc1ccc([N+](=O)[O-])cc1 | 0.505
CC(C)NC(=O)COc1cccc2ccccc12 | 0.217
Cc1cc(NCC(=O)NC(C)C)cc(C)c1I | 0.0941
Cc1cc(NCC(=O)NC(C)C)cc(C)c1Br | 0.0995
Cc1cc(OCC(=O)NC(C)C)ccc1I | 0.0873
CC(C)NC(=O)COC(c1ccccc1)c1ccccc1 | 0.949

Sample 2
Structure (SMILES): C[C@@H]1CN(c2ccc(-c3cc(C(=O)NCCOCCOCCOCCOCCNC(=O)/C=C/c4[nH]cc(C(=O)N[C@@H](CC(N)=O)c5ccc(F)c(Cl)c5)c4-c4ccc(Cl)cc4F)ccc3F)cc2NC(=O)c2c[nH]c(=O)cc2C(F)(F)F)C[C@H](C)N1C
Read-out: thermal unfolding
Method: differential scanning fluorimetry
Concentration: 5.5 µM
Reading: higher = more unfolded
DCAF1: DDB1- and CUL4-associated factor 1 (DCAF1, Homo sapiens, UniProt Q9Y4B6)
UniProt Q9Y4B6, sequence (whole entry, looked up): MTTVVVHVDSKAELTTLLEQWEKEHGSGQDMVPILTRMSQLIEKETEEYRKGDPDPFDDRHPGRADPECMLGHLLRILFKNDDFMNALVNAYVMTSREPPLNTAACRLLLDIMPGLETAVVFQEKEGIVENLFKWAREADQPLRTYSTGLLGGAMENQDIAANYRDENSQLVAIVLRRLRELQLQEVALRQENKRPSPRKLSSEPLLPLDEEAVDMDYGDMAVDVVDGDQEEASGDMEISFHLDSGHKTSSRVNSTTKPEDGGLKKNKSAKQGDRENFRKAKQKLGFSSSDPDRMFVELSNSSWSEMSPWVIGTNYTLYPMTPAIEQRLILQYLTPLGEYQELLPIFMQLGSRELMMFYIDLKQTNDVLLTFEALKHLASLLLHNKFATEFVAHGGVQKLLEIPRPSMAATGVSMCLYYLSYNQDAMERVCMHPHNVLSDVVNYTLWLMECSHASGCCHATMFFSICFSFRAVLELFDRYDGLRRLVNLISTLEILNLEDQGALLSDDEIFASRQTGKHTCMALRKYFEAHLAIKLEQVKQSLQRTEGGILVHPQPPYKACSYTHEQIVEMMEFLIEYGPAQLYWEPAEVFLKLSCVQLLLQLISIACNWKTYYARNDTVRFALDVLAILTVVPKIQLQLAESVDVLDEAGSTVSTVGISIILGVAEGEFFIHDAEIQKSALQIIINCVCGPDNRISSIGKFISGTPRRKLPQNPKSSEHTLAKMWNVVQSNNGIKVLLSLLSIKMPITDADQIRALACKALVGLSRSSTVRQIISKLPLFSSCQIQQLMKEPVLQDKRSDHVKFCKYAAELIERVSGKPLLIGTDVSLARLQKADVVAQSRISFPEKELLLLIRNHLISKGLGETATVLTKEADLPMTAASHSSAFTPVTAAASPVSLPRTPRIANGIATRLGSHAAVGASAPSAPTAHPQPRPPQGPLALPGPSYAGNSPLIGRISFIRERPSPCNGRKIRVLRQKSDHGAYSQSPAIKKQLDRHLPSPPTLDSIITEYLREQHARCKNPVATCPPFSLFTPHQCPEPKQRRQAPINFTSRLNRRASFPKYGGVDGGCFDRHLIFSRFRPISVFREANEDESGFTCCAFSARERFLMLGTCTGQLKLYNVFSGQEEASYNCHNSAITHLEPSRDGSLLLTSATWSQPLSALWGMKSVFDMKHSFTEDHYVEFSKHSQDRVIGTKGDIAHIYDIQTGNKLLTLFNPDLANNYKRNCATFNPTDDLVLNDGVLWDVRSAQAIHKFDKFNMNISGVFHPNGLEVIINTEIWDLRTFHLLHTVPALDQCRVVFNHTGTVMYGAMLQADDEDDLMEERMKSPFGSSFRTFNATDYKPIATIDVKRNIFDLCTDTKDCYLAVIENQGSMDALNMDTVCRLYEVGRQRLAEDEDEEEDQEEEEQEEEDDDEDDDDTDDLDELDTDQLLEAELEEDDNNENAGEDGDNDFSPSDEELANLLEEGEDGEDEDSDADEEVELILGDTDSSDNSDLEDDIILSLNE
WDR5: WD repeat-containing protein 5 (WDR5, Homo sapiens, UniProt P61964)
target | setting | SYPRO Orange fluorescence
DCAF1 | 31 °C | 9640 a.u.
DCAF1 | 46.4 °C | 13600 a.u.
WDR5 | 66.81 °C | 14000 a.u.
DCAF1 | 34.8 °C | 10200 a.u.
WDR5 | 26.6 °C | 13000 a.u.
WDR5 | 72.41 °C | 20100 a.u.
DCAF1 | 38.8 °C | 11200 a.u.
WDR5 | 66.21 °C | 14000 a.u.
DCAF1 | 49.6 °C | 14900 a.u.
WDR5 | 47 °C | 15700 a.u.
WDR5 | 35.2 °C | 13300 a.u.

Sample 3
SMILES: O=c1[nH]c(=S)n(C[C@H]2CCCO2)c2nc[nH]c12
MPO: Myeloperoxidase (MPO, Homo sapiens, UniProt P05164)
UniProt P05164, sequence (whole entry, looked up): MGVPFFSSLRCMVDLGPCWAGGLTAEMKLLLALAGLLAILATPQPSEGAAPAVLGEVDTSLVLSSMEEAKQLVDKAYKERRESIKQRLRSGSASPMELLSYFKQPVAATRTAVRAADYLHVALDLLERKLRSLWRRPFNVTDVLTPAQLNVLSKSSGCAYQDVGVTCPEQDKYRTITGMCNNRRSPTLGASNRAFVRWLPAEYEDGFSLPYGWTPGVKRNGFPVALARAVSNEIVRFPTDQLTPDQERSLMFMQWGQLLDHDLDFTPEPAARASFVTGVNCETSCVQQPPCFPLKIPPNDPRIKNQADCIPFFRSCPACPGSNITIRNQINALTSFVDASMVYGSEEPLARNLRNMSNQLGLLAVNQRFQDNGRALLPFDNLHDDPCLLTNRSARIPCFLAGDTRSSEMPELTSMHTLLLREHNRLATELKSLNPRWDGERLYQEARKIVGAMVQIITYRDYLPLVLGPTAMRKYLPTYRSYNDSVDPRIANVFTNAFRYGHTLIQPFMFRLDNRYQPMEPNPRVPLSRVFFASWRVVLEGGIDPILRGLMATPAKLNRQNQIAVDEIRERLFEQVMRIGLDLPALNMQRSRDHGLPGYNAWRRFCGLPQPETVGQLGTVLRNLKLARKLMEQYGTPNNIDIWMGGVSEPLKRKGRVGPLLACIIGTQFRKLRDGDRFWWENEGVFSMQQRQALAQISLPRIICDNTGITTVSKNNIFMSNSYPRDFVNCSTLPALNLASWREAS
AOC3: Amine oxidase [copper-containing] 3 (AOC3, Homo sapiens, UniProt Q16853)
UniProt Q16853, sequence (whole entry, looked up): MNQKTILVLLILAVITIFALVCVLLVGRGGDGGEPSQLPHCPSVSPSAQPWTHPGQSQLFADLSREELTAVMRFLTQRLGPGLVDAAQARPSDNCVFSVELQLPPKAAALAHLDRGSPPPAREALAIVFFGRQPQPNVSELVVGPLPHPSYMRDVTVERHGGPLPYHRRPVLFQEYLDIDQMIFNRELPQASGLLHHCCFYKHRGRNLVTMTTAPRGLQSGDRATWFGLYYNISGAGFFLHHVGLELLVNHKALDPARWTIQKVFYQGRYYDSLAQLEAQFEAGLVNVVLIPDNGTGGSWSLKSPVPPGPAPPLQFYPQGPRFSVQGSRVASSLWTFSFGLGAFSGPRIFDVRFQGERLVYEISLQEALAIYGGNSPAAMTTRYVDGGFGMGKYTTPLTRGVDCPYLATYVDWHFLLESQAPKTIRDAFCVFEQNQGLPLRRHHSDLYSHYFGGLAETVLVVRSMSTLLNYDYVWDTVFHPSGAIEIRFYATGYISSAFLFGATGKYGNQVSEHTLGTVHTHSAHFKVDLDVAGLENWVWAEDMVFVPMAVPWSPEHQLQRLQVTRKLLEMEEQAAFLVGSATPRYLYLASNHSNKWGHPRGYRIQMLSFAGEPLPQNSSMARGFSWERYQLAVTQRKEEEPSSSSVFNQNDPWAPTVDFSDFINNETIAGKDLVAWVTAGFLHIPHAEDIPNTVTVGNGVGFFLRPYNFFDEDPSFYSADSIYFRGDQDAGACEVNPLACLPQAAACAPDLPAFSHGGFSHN
target | test | setting | inhibition
MPO | Amplex Red | 3.333 µM | 100%
MPO | enzyme activity | 0.0015 µM | -1.15% and -8.59% and -15.5% and -22.5% and -1.8% and -14.4%
MPO | enzyme activity, inhibitor, fluorescence | 5 µM | 100%
AOC3 | enzyme activity, inhibitor, fluorescence | 4.1 nM | -12.4%
MPO | Amplex Red | 10 µM | 101%
AOC3 | enzyme activity, inhibitor, fluorescence | 0.3333 µM | -22.6%
AOC3 | enzyme activity, inhibitor, fluorescence | 1 µM | -44.2%
AOC3 | enzyme activity, inhibitor, fluorescence | 1.4 nM | -7.84%

Sample 4
Method: ultracentrifugation
Medium: mouse plasma
Concentration: 2 µM
Time: 4 h
pH: 7.4
SMILES | fraction unbound
Cc1ccc(O)c(C)c1-c1cnc2[nH]c(-c3cnc(N4CCC(CN5CCN(c6cc7c(cc6F)c(N6CCC(=O)NC6=O)nn7C)CC5)CC4)nc3)cc2c1C#N | 0.013
Cc1ccc(O)c(C)c1-c1cnc2[nH]c(-c3cnc(N4CCC(CN5CCN(c6ccc7c(c6F)CN(C6CCC(=O)NC6=O)C7=O)CC5)CC4)nc3)cc2c1C#N (centres unmarked) | 0.009
Cc1ccc(O)c(C)c1-c1cnc2[nH]c(-c3cnc(N4CCC(CN5CCN(c6ccc(NC7CCC(=O)NC7=O)cc6F)CC5)CC4)nc3)cc2c1C#N (centres unmarked) | 0.022
Cc1ccc(O)c(C)c1-c1cnc2[nH]c(-c3cnc(N4CCC(CN5CCC(c6ccc(NC7CCC(=O)NC7=O)cc6F)CC5)CC4)nc3)cc2c1C#N (centres unmarked) | 0.024
Cc1ccc(O)c(C)c1-c1cnc2[nH]c(-c3cnc(N4CC5(CC(CN6CCN(c7ccc(NC8CCC(=O)NC8=O)cc7F)CC6)C5)C4)nc3)cc2c1C#N (centres unmarked) | 0.011
Cc1ccc(O)c(C)c1-c1cnc2[nH]c(-c3cnc(N4CCC(CN5CCN(c6ccc7c(c6)C(=O)N(C6CCC(=O)NC6=O)C7=O)CC5)CC4)nc3)cc2c1C#N (centres unmarked) | 0.006
